Published values from different studies.
± gives the spread as reported.
Matrix: plasma

COc1ccc([C@@H](O)c2cc(-c3ncnc4cc(N5CCOCC5)ccc34)c(F)cc2Cl)nn1  AUC(0-t) geometric LS mean (mixed model; healthy volunteers; oral, 100 mg, fasted tablet reference arm): 1040 ng·h/mL
COc1nnc2ccc(N3CCC(c4ccc(OCCN5CCN(C)C(=O)[C@H]5C)cc4)CC3)nn12  AUC(0-t) (patients; oral, 10 mg once daily, multiple dose, monotherapy): 0.364 µM·h
CO[C@H]1CC[C@H](N2C(=O)CNc3ncc(-c4ccc(C(C)(C)O)nc4)nc32)CC1  AUC(0-t) (patients; oral, 30 mg, day 15, geometric mean): 1020 ng·h/mL
Oc1ccc([C@@H](O)c2cc(-c3ncnc4cc(N5CCOCC5)ccc34)c(F)cc2Cl)nn1  AUC(0-t) (geometric mean; healthy volunteers; oral, 100 mg, high-fat fed tablet): 401 ng·h/mL
C[C@@](Cc1ccc(O)c(O)c1)(NN)C(=O)O  AUC(0-t) (female Parkinson's disease patients; oral, dose not given, 3 h, median): 171 ng·h/mL
N#CCNC(=O)c1ccc(-c2ccnc(Nc3ccc(N4CCOCC4=O)cc3)n2)cc1  AUC(0-t) geometric mean ratio (healthy volunteers; together with: rifampin multiple-dose; relative to: with rifampin over alone): 105%
CS(=O)(=O)c1ccc([C@@H](O)[C@@H](CF)NC(=O)C(Cl)Cl)cc1  AUC(0-t) (Arbor Acres chickens; oral, 20 mg/kg, together with: quercetin 40 mg/kg pretreatment): 43100 ± 1530 ng·h/mL
C[C@@H](N)C1CCN(S(=O)(=O)c2cccc3cnccc23)CC1  AUC(0-t) (healthy volunteers, fasted; oral, 25 mg): 3.03 ng·h/mL

Some of these lines once more:
C[C@@](Cc1ccc(O)c(O)c1)(NN)C(=O)O  AUC(0-t) (female Parkinson's disease patients; oral, dose not given, 3 h, median): 171 ng·h/mL
